Published values of several laboratories.
Lines come from different studies, so protocols differ.

Compound | assay | system | conditions | scale | singlet oxygen quantum yield
CC(C)(C)c1cc(-c2ccc3cc4ccccc4nc3n2)nc(-c2ccc3cc4ccccc4nc3n2)c1.[Cl-].[Cl-].[Ru+2].c1ccc2cc3nc4c5cccnc5c5ncccc5c4nc3cc2c1 | 1O2 phosphorescence | acetonitrile | excitation maximum 464 nm | baseline: Ru(bpy)3(PF6)2 | 0.05
COc1cc(OC)cc(C2=C3C(C)=C(I)C(C)=[N+]3[B-](F)(F)n3c(/C=C/c4c[nH]c5ccccc45)c(I)c(C)c32)c1 | DPBF absorbance decrease | DMSO |  | baseline: methylene blue | 0.72
CC(C)(C)c1cc(-c2ccc3cccnc3n2)nc(-c2ccc3cccnc3n2)c1.[Cl-].[Cl-].[Ru+2].c1cnc2c(c1)ccc1cccnc12 | 1O2 phosphorescence | acetonitrile | excitation maximum 455 nm | baseline: Ru(bpy)3(PF6)2 | 0.06
CCN(CC)C(=S)c1ccc(-c2c3ccc(=[N+](C)C)cc-3sc3cc4c(cc23)C(C)(C)CCN4C)s1 | 1O2 luminescence | air-saturated methanol |  |  | < 0.05
CCOC(=O)c1[nH]c(C)c(/C=C/C2=[N+]3C(=C(c4cc(OC)cc(OC)c4)c4c(C)c(I)c(/C=C/c5c(C)[nH]c(C(=O)OCC)c5C)n4[B-]3(F)F)C(C)=C2I)c1C | DPBF absorbance decrease | DMSO |  | baseline: methylene blue | 0.43
CN1CCC(C)(C)c2cc3c(-c4ccc(C(=O)N5CCCCC5)s4)c4ccc(=[N+](C)C)cc-4sc3cc21 | 1O2 luminescence | air-saturated methanol |  |  | < 0.05
CCCCCCCCC1(CCCCCCCC)c2cc(-c3cc4[n+]5c(c3)-c3cccc[n+]3[Ir-3]536([c]5ccccc5-c5cc(-c7ccccc7)cc([n+]53)-c3cccc[c]36)[n+]3ccccc3-4)ccc2-c2ccc(-c3cc4[n+]5c(c3)-c3cccc[n+]3[Ir-3]536([c]5ccccc5-c5cc(-c7ccccc7)cc([n+]53)-c3cccc[c]36)[n+]3ccccc3-4)cc21.F[P-](F)(F)(F)(F)F.F[P-](F)(F)(F)(F)F |  | acetonitrile | 5 µM | baseline: [Ru(bpy)3](PF6)2 | 0.22
[Cl-].[Cl-].[Ru+2].c1cc(-c2ccc3cccnc3n2)nc(-c2ccc3cccnc3n2)c1.c1ccc2cc3nc4c5cccnc5c5ncccc5c4nc3cc2c1 | 1O2 phosphorescence | acetonitrile | excitation maximum 464 nm | baseline: Ru(bpy)3(PF6)2 | 0.28
COc1cc(OC)cc(C2=C3C(C)=C(I)C(/C=C/c4c[nH]c5ccc([N+](=O)[O-])cc45)=[N+]3[B-](F)(F)n3c(/C=C/c4c[nH]c5ccc([N+](=O)[O-])cc45)c(I)c(C)c32)c1 | DPBF absorbance decrease | DMSO |  | baseline: methylene blue | 0.34
CCCCCCCCC1(CCCCCCCC)c2cc(-c3cc4[n+]5c(c3)-c3cccc[n+]3[Ir-3]536([n+]5ccccc5-c5cc(-c7ccccc7)cc([n+]53)-c3cccc[n+]36)[n+]3ccccc3-4)ccc2-c2ccc(-c3cc4[n+]5c(c3)-c3cccc[n+]3[Ir-3]536([n+]5ccccc5-c5cc(-c7ccccc7)cc([n+]53)-c3cccc[n+]36)[n+]3ccccc3-4)cc21.F[P-](F)(F)(F)(F)F.F[P-](F)(F)(F)(F)F.F[P-](F)(F)(F)(F)F.F[P-](F)(F)(F)(F)F.F[P-](F)(F)(F)(F)F.F[P-](F)(F)(F)(F)F |  | acetonitrile |  |  | 22 to 28%
COc1cc(OC)cc(C2=C3C(C)=C(I)C(C)=[N+]3[B-](F)(F)n3c(/C=C/c4c[nH]c5ccc([N+](=O)[O-])cc45)c(I)c(C)c32)c1 | DPBF absorbance decrease | DMSO |  | baseline: methylene blue | 0.55
CCCCCCCCC1(CCCCCCCC)c2cc(C#Cc3cc4[n+]5c(c3)-c3cccc[n+]3[Ir-3]536([n+]5ccccc5-4)[n+]4ccccc4-c4cc(-c5ccccc5)cc([n+]43)-c3cccc[n+]36)ccc2-c2ccc(C#Cc3cc4[n+]5c(c3)-c3cccc[n+]3[Ir-3]536([n+]5ccccc5-4)[n+]4ccccc4-c4cc(-c5ccccc5)cc([n+]43)-c3cccc[n+]36)cc21.F[P-](F)(F)(F)(F)F.F[P-](F)(F)(F)(F)F.F[P-](F)(F)(F)(F)F.F[P-](F)(F)(F)(F)F.F[P-](F)(F)(F)(F)F.F[P-](F)(F)(F)(F)F |  | acetonitrile |  |  | 22 to 28%
